Experimental data collected from several papers.
Lines come from different studies, so protocols differ. ± gives the spread as reported.

| Compound | assay | system | conditions | scale | endpoint | value |
| --- | --- | --- | --- | --- | --- | --- |
| COC(=O)C[C@](O)(CCCC(C)(C)OC(C)=O)C(=O)O[C@@H]1C(OC)=C[C@]23CCCN2CCc2cc4c(cc2[C@H]13)OCO4 |  | CD1 mouse, pancreas | subcutaneous, 1 mg/kg, 8 h |  | tissue concentration | 4.2 ng/mL |
| CNC(=O)Oc1cc(C)c(S(C)(=O)=O)c(C)c1 |  | human liver cytosol | 1 µM, 30 min, 1 mg/mL protein |  | percent metabolized | 67.6% |
| CCN(CCCCOc1ccc(CCC(=O)N2CCC(Cc3ccccc3)CC2)cc1OC)Cc1ccccc1 |  | Sprague-Dawley rats, both sexes, brain | oral, 25 mg/kg, 6 h |  | concentration | 301 ng/g |
| C[C@H]1CN(Cc2ccc(C(F)(F)F)cc2N2C3CCC2CN(CC(=O)O)C3)CCN1C(=O)n1ccc(S(=O)(=O)N(C)C)n1 | metabolic stability | human, liver microsomes |  |  | microsomal CLint | 4.8 µL/min/mg |
| CCNc1cc2[o+]c3cc(NCC)c(C)cc3c(-c3ccccc3C(=O)OCCOCC[18F])c2cc1C |  | rat | 120 min | baseline: heart over blood | tissue uptake ratio | 29.5 |
| [11CH3]n1c(=O)n(CCCO)c(=O)c2c1nc(Oc1cccc(OC(F)(F)F)c1)n2Cc1ccc(Cl)cc1 | ex vivo biodistribution | Sprague Dawley rat, thymus | 5 min post injection |  | tracer uptake | 0.52 ± 0.16 %ID/g |
| O=C(C[P+]([Au-][Cl])(c1ccccc1)c1ccccc1)[O][Ti+2][O]C(=O)C[P+]([Au-][Cl])(c1ccccc1)c1ccccc1.c1cc[cH-]c1.c1cc[cH-]c1 |  | C57BL/6 mice, female | subcutaneous, 15 mg/kg/day |  | time to death | < 24 h |
| CC[C@H](C)C(=O)N1CCC(NC(=O)Nc2ccc(OC(F)(F)F)c(F)c2)CC1 |  | healthy volunteers | oral, 16 mg single dose, 14 (unit not given) |  | subjects with any AE | 100% |
| N=C(N)NCc1ccc(C(=O)NCCCC[C@H](NC(=O)N[C@@H](CCC(=O)O)C(=O)O)C(=O)O)cc1[211At] |  | SCID mouse, PC-3 xenografts, lungs | 14 h |  | tissue uptake | 1.02 ± 0.27 %ID/g |
| COC(=O)C[C@H](NC(=O)[C@H](C)NC(=O)[C@@H](NC(=O)[C@H](CC(=O)OC)NC(=O)[C@@H](NC(=O)c1ccc2ccccc2n1)C(C)C)C(C)C)C(=O)COc1c(F)cccc1F | echography | rat pups | 1 mg/kg, 1 h |  | fractional shortening | 50 ± 2.11% |
| O=c1cc(-c2ccccc2)oc2c(Br)c(O)c(O)c(O)c12 |  | C57BL/6 mouse, plasma | oral, 50 mg/kg, single dose |  | MRT(0-inf) | 5.7 h |
| CC[C@H](C)[C@H](NC(=O)[C@H](CC(=O)O)NC(=O)[C@H](CO)NC(=O)[C@H](CCC(N)=O)NC(=O)[C@H](C)NC(=O)[C@H](CC(=O)O)NC(=O)[C@H](CCC(=O)O)NC(=O)[C@H](Cc1c[nH]cn1)NC(=O)[C@H](Cc1ccc(O)cc1)NC(=O)[C@H](C)NC(=O)[C@H](CC(=O)O)NC(=O)[C@H](CCC(=O)O)NC(=O)[C@H](Cc1c[nH]cn1)NC(=O)[C@H](Cc1ccc(O)cc1)NC(=O)[C@H](C)NC(=O)[C@H](CC(=O)O)NC(=O)[C@H](CCC(=O)O)NC(=O)[C@H](Cc1c[nH]cn1)NC(=O)[C@H](Cc1ccc(O)cc1)NC(=O)[C@H](C)NC(=O)[C@H](CC(=O)O)NC(=O)[C@H](CCC(=O)O)NC(=O)[C@H](Cc1c[nH]cn1)NC(=O)[C@H](Cc1ccc(O)cc1)NC(=O)[C@H](C)NC(=O)[C@H](CC(=O)O)NC(=O)[C@H](CCC(=O)O)NC(=O)[C@H](Cc1c[nH]cn1)NC(=O)[C@@H](N)Cc1ccc(O)cc1)C(=O)N[C@H](C(=O)N[C@@H](C)C(=O)N[C@@H](Cc1c[nH]cn1)C(=O)N[C@@H](CC(C)C)C(=O)N[C@@H](CC(C)C)C(=O)O)C(C)C |  | normal mouse, blood | dose not given |  | NE share of white cells | 18.1 ± 2.8% |
| CN(C)C(CNC(=O)Nc1cc(C(F)(F)F)ccc1N1CCOCC1)c1ccncc1 (stereo not shown) |  | mouse, serum | intraperitoneal, 120 mg/kg single dose |  | serum osmolarity | 314 mmol/L |
| [2H]C([2H])([2H])C([2H])([2H])C([2H])([2H])OC(C(=O)OC1CCNCC1)(c1ccccc1)c1ccccc1 |  | healthy Japanese male | oral, 8 to 18 mg once daily, 16 days |  | adverse event incidence | 25.7% |
| CC[C@H](C)[C@H](NC(=O)[C@H](Cc1ccccc1)NC(=O)[C@H](CC(=O)O)NC(=O)[C@@H]1CCNC(=O)NCCC[C@H](NC(=O)[C@H](CC(C)C)NC(=O)[C@H](CCCNC(=N)N)NC(=O)[C@H](CCSC)NC(=O)[C@H](C)N)C(=O)N[C@@H](CCCCN)C(=O)N[C@@H](Cc2ccccc2)C(=O)N[C@@H](Cc2ccccc2)C(=O)N1)C(=O)N[C@@H](CC(C)C)C(=O)N[C@@H](CCC(N)=O)C(=O)N[C@@H](CCCNC(=N)N)C(=O)N[C@@H](CCCCN)C(=O)N[C@@H](CCCCN)C(=O)O | circular dichroism | 20% TFE in PBS | 200 µM, pH 7.4, 25 °C |  | helicity | 18.5% |
| CCN(CC)c1ccc2c(-c3ccccc3C(=O)OCCOCC[18F])c3ccc(=[N+](CC)CC)cc-3oc2c1 | microPET | rat, heart | dose not given, 5 min post injection |  | radioactivity concentration | 69 ± 5 kBq/cm³ |

| Compound | assay | system | conditions | scale | endpoint | value |
| --- | --- | --- | --- | --- | --- | --- |
| CC(C)[C@H](NC(=O)[C@H](Cc1c[nH]c2ccccc12)NC(=O)[C@H](Cc1ccccc1)NC(=O)[C@@H](NC(=O)[C@@H](NC(=O)[C@H](CCCCN)NC(=O)[C@@H](N)CCCCN)C(C)C)C(C)C)C(=O)N[C@@H](CCCCN)C(=O)N[C@@H](Cc1ccccc1)C(=O)N[C@@H](CCCCN)C(N)=O | ELISA, item: IL-1β | mouse, blood | iv, 500 µg/kg, 5 days |  | cytokine level | 0.47 ± 0.03 ng/mL |
| COc1cc(NC(=O)C(=O)c2c(C)n(Cc3ccc(Cl)cc3)c3ccc(C)cc23)ccn1 |  | female cynomolgus monkey, plasma | intravenous, 1 mg/kg |  | Vd | 8.38 L/kg |
| CC(C)C[C@H](NC(=O)[C@H](CCCCN)NC(=O)[C@H](CCC(=O)O)NC(=O)[C@H](C)NC(=O)[C@@H](NC(=O)[C@H](CCCCN)NC(=O)[C@H](CC(=O)O)NC(=O)[C@H](Cc1ccc(O)cc1)NC(=O)[C@H](Cc1ccccc1)NC(=O)[C@H](C)NC(=O)[C@H](CCCCN)NC(=O)[C@H](CC(C)C)NC(=O)[C@H](Cc1c[nH]c2ccccc12)NC(=O)[C@@H](N)CC(=O)O)C(C)C)C(=O)N[C@@H](CCCCN)C(=O)N[C@@H](CCC(=O)O)C(=O)N[C@@H](C)C(=O)N[C@@H](Cc1ccccc1)C(=O)N1CCC[C@H]1C(=O)N[C@@H](CC(=O)O)C(=O)N[C@@H](Cc1c[nH]c2ccccc12)C(=O)N[C@@H](C)C(=O)N[C@@H](CCCCN)C(=O)N[C@@H](C)C(=O)N[C@@H](C)C(=O)N[C@@H](Cc1ccc(O)cc1)C(=O)N[C@@H](CC(=O)O)C(=O)N[C@@H](CCCCN)C(=O)N[C@@H](C)C(=O)N[C@@H](C)C(=O)N[C@@H](CCC(=O)O)C(=O)N[C@@H](CCCCN)C(=O)N[C@@H](C)C(=O)N[C@@H](CCCCN)C(=O)N[C@@H](CCC(=O)O)C(=O)N[C@@H](C)C(=O)N[C@@H](C)C(=O)O |  | cynomolgus monkey female, plasma | intravenous infusion, 75 mg/kg, day 1, 30 min infusion |  | half-life | 4.2 h |
| O=C(NCCCCCn1ccc2ccc(F)cc21)Oc1cccc(F)c1 |  | porcine liver S9 fraction | 20 µM, 30 min, together with: BNPP 1 mM |  | parent remaining | 79 ± 9% |
| CCCCCCCC/C=C\CCCCCCCCOP(O)(O)=S.N |  | mouse, female, nonirradiated | sc, dose not given |  | AUC(0-inf) | 1150 ng·h/mL |
| CSCC[C@H](NC(=O)CNC(=O)[C@H](CCCCN)NC(=O)[C@H](CC(C)C)NC(=O)[C@@H]1CCCN1C(=O)[C@H](CO)NC(=O)[C@H](Cc1c[nH]cn1)NC(=O)[C@H](Cc1c[nH]c2ccccc12)NC(=O)[C@H](CCCNC(=N)N)NC(=O)[C@H](CC(C)C)NC(=O)[C@H](CCCNC(=N)N)NC(=O)[C@H](Cc1c[nH]c2ccccc12)NC(=O)[C@H](CS)NC(=O)CN1CCN(CC(=O)O)CCN(CC(=O)O)CCN(CC(=O)O)CC1)C(=O)O [copper-64 labelled] | radio-HPLC | mouse serum | 1 h, 37 °C |  | intact tracer remaining | ~22.4% |
| CCc1c2c(nc3ccc(OC4OC(C(=O)O)C(O)C(O)C4O)cc13)-c1cc3c(c(=O)n1C2)COC(=O)C3(O)CC (stereo not shown) |  | human patients, plasma | intravenous, 24 mg/m^2 of parent drug |  | Cmax | 18 ng/mL |
| CC(=O)OC1O[C@@H]2O[C@@]3(C)CC[C@H]4[C@H](C)CCC([C@H]1C)[C@@]24OO3 (stereo partly shown) |  | Tg(fli1:EGFP) zebrafish embryos | 50 µg/mL, up to 48 hpf |  | dead embryos | 4 count |
| CCCCCCCC(=O)SCC/C=C/[C@@H]1CC(=O)NCc2nc(cs2)C2=N[C@@](C)(CS2)C(=O)N[C@@H](C(C)C)C(=O)N1 | item: thiol form | NIH Swiss mouse, female, whole blood | iv, 5 mg/kg |  | AUC | 745 ng·h/mL |
| CCCCCCCCCCCCCCC(=O)O.O=C1CCCC2C3CCCN4CCCC(CN12)C34 (stereo not shown) | shake-flask | simulated intestinal fluid | pH 6.8, 37 °C |  | log octanol-water partition coefficient | 0.12 |
| C[C@]12CC[C@H](O)CC1CCC1C2[C@H](O)C(=O)[C@]2(C)[C@@H](c3ccc(=O)oc3)CC[C@]12O (stereo partly shown) | sulfation, substrate | pooled human liver cytosol | pH 7.4 |  | CLint | 1 µL/min/mg |
| CC[C@H](C)[C@@H]1NC(=O)[C@H](CCCCN)NC(=O)[C@H](CCCCN)NC(=O)[C@H](Cc2ccc(O)cc2)NC(=O)[C@H](CC(C)C)NC(=O)[C@@H]2CCCN2C(=O)[C@H](C)NC(=O)CNC(=O)CNC(=O)[C@H](CO)NC(=O)CNC(=O)CNC(=O)[C@H](CO)NC(=O)[C@H](CCC(=O)O)NC(=O)[C@H](CC(C)C)NC(=O)[C@H](CC(C)C)NC(=O)[C@H](CCCCN)NC(=O)[C@H](CCCCN)NC(=O)[C@H]([C@@H](C)CC)NC(=O)[C@H]([C@@H](C)CC)NC(=O)[C@H](CCCCN)NC(=O)[C@H](CCCCN)NC(=O)[C@H](Cc2ccc(O)cc2)NC(=O)[C@H](CC(C)C)NC(=O)[C@@H]2CCCN2C(=O)CNC(=O)CNC(=O)CSC[C@@H](C(N)=O)NC(=O)[C@H](CC(C)C)NC(=O)[C@H](CCCCN)NC(=O)[C@H](CCCCN)NC(=O)[C@H]([C@@H](C)CC)NC1=O |  | 25% human serum | 50 µM, 24 h | baseline: 0 h control | remaining intact peptide | 66 ± 2.5% |
| CC1=CC=c2ccc3c4c2[N]1[Re](=[C]=O)(=[C]=O)(=[C]=O)([C]#[N+]c1cc(C)cc(C)c1)[N]4C(C)=CC=3.O=S(=O)([O-])C(F)(F)F |  | PBS | pH 7.4, nitrogen-saturated |  | luminescence lifetime | 5.3 µs |
| CC[C@H](C)[C@H](NC(=O)CNC(=O)[C@H](CC(=O)O)NC(=O)[C@H](CC(C)C)NC(=O)[C@@H](NC(=O)[C@H](CC(N)=O)NC(=O)[C@H](CCC(N)=O)NC(=O)CNC(=O)[C@H](CC(C)C)NC(=O)[C@H](CCCCN)NC(=O)[C@H](CCC(=O)O)NC(=O)[C@@H](NC(=O)[C@H](CCCCN)NC(=O)[C@H](CCC(=O)O)NC(=O)[C@H](Cc1ccccc1)NC(=O)[C@H](CC(C)C)NC(=O)[C@H](CCCCN)NC(=O)[C@H](Cc1c[nH]c2ccccc12)NC(=O)[C@@H](N)CCC(=O)O)[C@@H](C)CC)[C@@H](C)CC)C(=O)N[C@H](C(=O)N[C@@H](CCCCN)C(=O)N[C@@H](CC(C)C)C(=O)NCC(=O)N1CCC[C@H]1C(=O)N[C@@H](CC(C)C)C(=O)N[C@@H](CC(C)C)C(=O)N[C@@H](C)C(=O)N[C@@H](CC(C)C)C(=O)N[C@@H](CC(C)C)C(=O)NCC(=O)N[C@@H](CCC(N)=O)C(=O)N[C@@H](CC(C)C)C(=O)N[C@H](C(=O)N[C@@H](CCC(N)=O)C(=O)N[C@H](C(=O)N[C@@H](C)C(=O)N[C@@H](CC(C)C)C(N)=O)[C@@H](C)CC)[C@@H](C)O)[C@@H](C)CC | circular dichroism | phosphate buffer 10 mM | 1 to 5 µM, pH 7.5, approximate |  | helicity | ~30% |
| CC(C)[C@H](NC(=O)CNC(=O)[C@H](CCC(N)=O)NC(=O)[C@H](C)N)C(=O)O | serious adverse event | human | 10 mg/kg, 3 days, thrice daily dosing |  | subjects with adverse events | 0% |
